Measured values of several laboratories.
Compare with care: the assays were run in different laboratories. “And” joins repeats or separate records; there may be more than shown. ± marks the error that the study gave.

COc1ccccc1[C@H](Cn1c(=O)n(C(C)(C)C(=O)O)c(=O)c2c(C)c(-c3ncco3)sc21)OC1CCOCC1
fractional hepatic DNL ([1-13C]acetate infusion, isotopomer analysis; overweight or obese healthy men, plasma VLDL-TG palmitate; oral, 20 mg single dose, 7 h post-dose, added: oral fructose): 13.3 % new palmitate

N#Cc1ccc2c(-c3ccncc3)c(-c3ccc(F)cc3)nn2c1
log2 fold change (kinase binding, competitor, MIB/MS competition, measured: KSP1; Candida albicans cell lysate; 1 µM; reference: DMSO): -0.125

CC(C)NCC(O)c1ccc(O)c(O)c1 (stereo not shown)
sarcomere length (ventricular cardiomyocytes, C57BL/6 mouse; dose not given, 0.312 s): 1.72 µm

CN(C)C(=O)Oc1cccc([N+](C)(C)C)c1
twitch response (rat cisatracurium-induced neuromuscular block; 0.001 mg/kg): 0.174% and 1.9% and 5.15% and 4.43%

COc1ccc(F)cc1C(=O)NCc1ccc(-c2nn([C@@H](C)C(F)(F)F)c(N)c2C(N)=O)cc1
tumour regression (mouse TMD8 BTK C481S xenograft; oral, 10 mg/kg twice daily): -29%

CSc1ccc(C(=O)/C=C/c2cc(C)c(OC(C)(C)C(=O)O)c(C)c2)cc1
serum TC, TG, AST and ALT (db/db mice on MCD diet; oral, 30 mg/kg daily, 45 days; reference: untreated model): decreased

O=C(O)c1c(-c2ccc(Cl)cc2)csc1NC(=O)c1cccc2ccccc12
pain response latency (hot plate test; ICR mouse; intragastric, 20 mg/kg, 3 h; reference: vehicle): no effect

C[C@H]1C[C@H]2CSC(N)=N[C@@]2(c2nc(NC(=O)c3ccc(OC(F)F)cn3)cs2)CO1
percent change from baseline (measured: total Aβ; healthy adults, plasma; 15 mg once daily, day 14; reference: placebo): -45%

CCN1CCN(Cc2ccc(Nc3ncc(F)c(-c4cc(F)c5nc6n(c5c4)[C@H](C)CCC6)n3)nc2)CC1
progressive disease (human advanced solid tumours; 200 mg, phase Ia monotherapy RECIST 1.1): 0%

CC(=O)NCC(=O)NCC(=O)N[C@H](C(=O)N[C@@H](Cc1ccc(O)cc1)C(=O)N[C@@H](CO)C(=O)N[C@H]1CSSC[C@@H](C(=O)N[C@@H](CCCNC(=N)N)C(=O)N2CCC[C@H]2C(=O)N[C@@H](CCC(N)=O)C(=O)N[C@@H](CCCNC(=N)N)C(=O)NCC(=O)NCCC(=O)N[C@@H](CCCCNC(=O)CN(CC(=O)NCCCC[C@H](NC(=O)CCNC(=O)CNC(=O)[C@H](CCCNC(=N)N)NC(=O)[C@H](CCC(N)=O)NC(=O)[C@@H]2CCCN2C(=O)[C@H](CCCNC(=N)N)NC(=O)[C@@H]2CSSC[C@H](NC(=O)[C@H](CO)NC(=O)[C@H](Cc3ccc(O)cc3)NC(=O)[C@@H](NC(=O)CNC(=O)CNC(C)=O)[C@@H](C)O)C(=O)N[C@@H](Cc3c[nH]cn3)C(=O)N[C@@H](Cc3ccccc3)C(=O)NCC(=O)N[C@@H](C)C(=O)N[C@@H](CC(C)C)C(=O)N[C@@H]([C@@H](C)O)C(=O)N[C@@H](Cc3c[nH]c4ccccc34)C(=O)N[C@@H](C(C)C)C(=O)N2)C(N)=O)C(=O)CCN)C(N)=O)NC(=O)[C@H](C(C)C)NC(=O)[C@H](Cc2c[nH]c3ccccc23)NC(=O)[C@H]([C@@H](C)O)NC(=O)[C@H](CC(C)C)NC(=O)[C@H](C)NC(=O)CNC(=O)[C@H](Cc2ccccc2)NC(=O)[C@H](Cc2c[nH]cn2)NC1=O)[C@@H](C)O
reticulocytes (healthy BALB/c mice; subcutaneous, 0.16 mg/kg, 6 d, single dose): 4.5%

CN[C@@H]1COc2c(S(=O)(=O)NC(=O)Nc3c4c(cc5c3CCC5)CCC4)cnn2C1
inhibition (measured: IL-1β; human participants, whole blood ex vivo; 900 mg single dose, 1 h, added: LPS/ATP; reference: baseline): 99.7%

COc1cc(Nc2ncc3c(n2)-c2ccc(Cl)cc2C(c2c(F)cccc2OC)=NC3)ccc1C(=O)O
relative tumour volume T/C (mouse, NB-1771 neuroblastoma xenograft; oral, 2.6 mg/kg, day 21; reference: vehicle): 2.08

OC(CCN1CCCCC1)(c1ccccc1)C1CC2C=CC1C2 (stereo not shown)
change in EEG Alpha1-power Pz-O2 (resting-state EEG; healthy elderly humans; oral, 2 mg, eyes closed, LS mean; reference: baseline): -20.4%

C[C@H]1O[C@@H](O[C@H]2CC[C@@]3(C)[C@@H](CC[C@]4(C)[C@@H]3C=C[C@]35OC[C@@]6(CCC(C)(C)C[C@H]63)[C@@H](O)C[C@]54C)[C@]2(C)CO)[C@H](O)[C@@H](O[C@@H]2O[C@H](CO)[C@@H](O)[C@H](O)[C@H]2O)[C@H]1O
Oil Red O area (chronic-plus-binge ethanol-fed mice, liver; dose not given, medium dose; reference: area): 9.38% and 13% and 14.1% and 13.4%

Cc1oncc1C(=O)Nc1ccc(C(F)(F)F)cc1
DHO concentration (measured: dihydroorotate; female CD-1 mice, pooled urine; oral, 30 mg/kg daily, 8-24 h after dose 1): 5070 ± 255 µM

Cl.O=C(c1cc(Cc2n[nH]c(=O)c3ccccc23)ccc1F)N1CC(CNC2CC2)C1
tumour growth inhibition (BALB/c nude mouse, CAPAN-1 xenograft; oral, 50 mg/kg once daily, 28 days): 62.2%

C[C@H](Oc1ccc(Br)cc1-c1ccon1)C(=O)O
latency change (muscle velocity recovery cycles; human, tibialis anterior muscle; 200 mg once daily, multiple doses, 30 Hz train for 30 s; reference: placebo): -1.13%

C[C@H](NC(=O)c1c(C(F)F)nn(C)c1Oc1cccc(C(F)(F)F)c1)c1ccc(C(=O)O)cc1
progressive disease (irRECIST; human, advanced tumours; 125 mg; best overall response): 37.5%

CCc1c(C)nc(-c2ccc(Cl)s2)nc1Nc1ccc(CC(=O)O)cc1
serum ALP (C57BL/6J mice, MCD diet; intraperitoneal, 0.3 mg/kg daily, MCD diet 6 weeks, dosed last two; reference: vehicle): decreased

O=C(O)CNC(=O)Cc1ccccc1
sarcomere length (ventricular cardiomyocytes, C57BL/6 mouse; dose not given, 0.068 s): 1.72 µm

C[C@@H]1COCCN1c1cc([C@]2(O)C[C@H]3CC[C@@H](C2)O3)c2cnn(-c3cc[nH]n3)c2n1
tumour growth inhibition (mice, Granta-519 xenograft; 30 mg/kg once daily for 3 days, day 14): 81 ± 1.4%

CC1(C)CCC(CN2CCN(c3ccc(C(=O)NS(=O)(=O)c4ccc(NCC5CCOCC5)c([N+](=O)[O-])c4)c(Oc4cnc5[nH]ccc5c4)c3)CC2)=C(c2ccc(Cl)cc2)C1
EC50 (cell killing; canine blood CD3+ T cells, dog 31; 24 h): 72 nM

NC(=O)c1cnc2[nH]ccc2c1N[C@@H]1[C@@H]2CC3C[C@H]1C[C@@](O)(C3)C2
change from baseline (flow cytometry, measured: CD4+ effector T cells; Japanese healthy subjects, peripheral blood; oral, 10 mg twice daily, day 4): 0%

O=C1Nc2cc3[nH]nc(-c4ccncc4)c3cc2CN1Cc1ccccc1
partial response, best response (RECIST v1.1; human, relapsed or refractory advanced solid tumours; intravenous, 9.6 mg/kg, pooled schedules): 0%

Cn1cc(Nc2nccc(-c3ccc4c(c3)CN(C3COC3)CC[C@H]4NC(=O)c3cn(C(C)(C)C)nn3)n2)cn1
pathway activation z-score (measured: thyroid cancer signaling; splenic B cells, mice; 30 mg/kg, IgD-activated in vivo; reference: vehicle, direction not given): 2.11
